Experimental data of several laboratories.
Lines come from different studies, so protocols differ.
Technique: steady-state kinetics
B1: enzyme (Tetranychus urticae, UniProt T1KUK4); chain MNPETMNENGKSLKILFTALFGPGHLNACLGIGSLLRKRGHQIYFAHFPRHRATIEKHGFLFISLLDYAEPEFPIVDMLPDIGIIAKFAFERMHKLTPLELFRHASGKHTFAGMVNGSKGENYAMMKIVKEYKPDVCLADYLFNMPWMFTVDCPVIPVKSVNPIELYNGPPALTGCSIHDPPSVREEIEQLARKSELELESELEKLFAHFNVPLVSYNYAQQLGIYIYPGPLDYKELGSPKENWVRLDSSIRSTEISNFELPEKLKDKPGKLIYVSMGSLASAVTELLTMILTPLANSPHRFIVSTGPNGDSIKLYDNMWGDKFINQVALLPKVDLFITHGGSNSLIEGLTAGKPLIAIPQFGDQLDNAQRIADLGLGVRLNLHEFSGEKLLKAIEDVLNDEKINANVARVSEELKKSDSKDKVISLIEKLARDKKL
B2: enzyme P89Y (Thermobifida fusca, UniProt Q47RA9); chain MIMIMASKSSPHDLPDVSGLSIAVLGGTGDQGRGLARRFAMAGHEVILGSRSAERAQAVAAELGEGLPVRGMDNAGAAEAGDVVIVAVYWDGHRALLESLKDVLAGKIVVDCVNPLGFDKRGAYALPVEEGSAAEQAAAILPDSRVVAAFHHVSAVLLLDPEVEKVDLDVLVLGDDREATDVVRALAARIPGVRGVYGGRLRNAHQVEAFTANLISINRRYKAHAGIRITDI
B3: protein (UniProt M4ZR24); chain MNEIGTTWAEGTSERVIRLLTDKRAGRPMSGPDIEGLVKDFTAGSVPDYQMASWLATVACAGLSAEELTALTAAYVDSGERLSLSSSRRPVADKHSTGGVGDKTTLVVAPVVAACGIGVGKVTGRGLGFMGGTVDKLESIPGLDLELSGSALSAQVADLGLAVTGQSPSLVPGDRMTYALRDVTGTVDSIPLIAASIMSKNTKGIAVRCNSIVLDVKYGDGAVLPDRAVATELARTMLELGRSFDLPTTAVISSMEQPLGYAVGNGLEVREAIIALSGTYVEDLTELAITISALMISTADSAVDHDRARDRVREVLSDGSALRMFRAFVARQGGDVGFVDDPSRLETAPHRLVVTATEAGHVARIAARRIGEAALRVGAGRLVYGAPIDHGAGIVLSRRIGDSVAEGEPLATLHGSDYDQLESLADVVRGCFDISERPPGRPDVIVDVLRQGDAG
B4: CstB (Staphylococcus aureus, UniProt G5ELA4); chain MFFKQFYDNHLSQASYLVGCQRTGEAIIIDPVRDLSKYIEVADSEGLTITQATETHIHADFASGIRDVAKRLNANIYVSGEGEDALGYKNMPSKTQFVKHGDIIQVGNVKLEVLHTPGHTPESISFLLTDLGGGSSVPMGLFSGDFIFVGDIGRPDLLEKSVQIKGSTEISAKQMYESVQNIKNLPDYVQIWPGHGAGSPCGKALGAIPISTIGYEKINNWAFNEIDETKFIESLTSNQPAPPHHFAQMKQVNQFGMNLYQSYDVYPSLDNKRVAFDLRSKEAFHGGHTKGTINIPYNKNFINQIGWYLDFEKDIDLIGDKSTVEKAKHTLQLIGFDKVAGYRLPKSGISTQSVHSADMTGKEEHVLDVRNDEEWNNGHLDQAVNIPHGKLLNENIPFNKEDKIYVHCQSGVRSSIAVGILESKGFENVVNIREGYQDFPESLK
B5: protein (Gloriosa superba, UniProt A0A7D5Q548); chain MAEVVESRQWVMTAYAEEGLPTPEHVTLITTKVAVDAASIPEGHAAVQVLWISIDPYLRSGMLGRMDGLCFPPFPIGKVITTLGVGRIIRSKDASYCEGDIVLHTSVPVADYCIAPATMLRKIDMGTRISPLDYLTAFGLPGFAAWIAIHLIGNPKPGENVFISAAAGAVGMLAGQLAKLKGCRVVGSTGTDEKVNLLKEEFKFDDAFNYKKEADFDAALSKYLPSGIDIYVDNVGGKMLEAVLNHVNKKARIPLCGMISQYNQVWTERDGVRNLLNMIGKEVRMEGFIITSYLQQFQDFEQEIGEYLNEGKLVSKVKIVEGIEGFLESLLSLFSSSNVGKVILQVNK
B6: pylS (Methanosarcina mazei, UniProt Q8PWY1); chain MDKKPLNTLISATGLWMSRTGTIHKIKHHEVSRSKIYIEMACGDHLVVNNSRSSRTARALRHHKYRKTCKRCRVSDEDLNKFLTKANEDQTSVKVKVVSAPTRTKKAMPKSVARAPKPLENTEAAQAQPSGSKFSPAIPVSTQESVSVPASVSTSISSISTGATASALVKGNTNPITSMSAPVQASAPALTKSQTDRLEVLLNPKDEISLNSGKPFRELESELLSRRKKDLQQIYAEERENYLGKLEREITRFFVDRGFLEIKSPILIPLEYIERMGIDNDTELSKQIFRVDKNFCLRPMLAPNLYNYLRKLDRALPDPIKIFEIGPCYRKESDGKEHLEEFTMLNFCQMGSGCTRENLESIITDFLNHLGIDFKIVGDSCMVYGDTLDVMHGDLELSSAVVGPIPLDREWGIDKPWIGAGFGLERLLKVKHDFKNIKRAARSESYYNGISTNL
B7: protein (Rheum palmatum, UniProt A0A7L9A2S6); chain MKKTELVFLPAPAPGHLVSTVEFSKRLIARDARLTVTILVISSPFSRGAQTNPSPGIRYVTLPQVDVPQHLMKDSIEHTISVYIASHAPHVRDAVAALQTESTVHVAGLFLDMFCTPMIDVANELGLPSYVFFCSSAGFLGLLLHLPVHSQPRFDETGLDVLIPSFQNPVPTRVLPRFGFNELGYKSFMDHAKRFGETKGIIINTYAELEPYALKSLLDAYDTAPVYAVGPVLDLRSQVHMPCDAAERARIMGWLDKQPDSSVVFLCFGSGGSFSEHQIREISKGLSQSGQRFLWSVRKPPTGGLVKPTEYTETELRSVLGDEFWSLLDEGERGVVCGWAPQVEVLGHKSVGAFVSHCGWNSTLESLWFGKPMVTWPLYAEQQMNAFELVKELGIAVELTLDYRLHSSEVVEAREVERAVRRVMDENNPVRYKVKEMAEVCRATLVEGGSSFVCVDRLISGFLGEIN
B8: BshA Y95F (Bacillus subtilis, UniProt P42982); chain MRKLKIGITCYPSVGGSGIIATELGKQLAEKGHEIHFITSSIPFRLNTYHPNIHFHEVEVNQYAVFKYPPYDLTLASKIAEVAERENLDIIHAHFALPHAVCAYLAKQMLKRNIGIVTTLHGTDITVLGYDPSLKDLIRFAIESSDRVTAVSSALAAETYDLIKPEKKIETIYNFIDERVYLKKNTAAIKEKHGILPDEKVVIHVSNFRKVKRVQDVIRVFRNIAGKTKAKLLLVGDGPEKSTACELIRKYGLEDQVLMLGNQDRVEDLYSISDLKLLLSEKESFGLVLLEAMACGVPCIGTNIGGIPEVIKNNVSGFLVDVGDVTAATARAMSILEDEQLSNRFTKAAIEMLENEFSSKKIVSQYEQIYADLAEPE
UniProt Q6PHW0, sequence (whole entry, looked up): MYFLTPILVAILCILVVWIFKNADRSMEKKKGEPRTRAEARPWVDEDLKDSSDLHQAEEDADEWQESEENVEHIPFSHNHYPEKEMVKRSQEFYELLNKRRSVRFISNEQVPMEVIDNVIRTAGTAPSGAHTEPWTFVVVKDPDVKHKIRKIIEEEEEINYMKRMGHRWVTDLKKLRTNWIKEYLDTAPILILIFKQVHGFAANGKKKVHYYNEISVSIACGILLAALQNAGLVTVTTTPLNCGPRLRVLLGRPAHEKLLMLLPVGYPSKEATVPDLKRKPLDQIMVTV
UniProt P0DXY1, sequence (whole entry, looked up): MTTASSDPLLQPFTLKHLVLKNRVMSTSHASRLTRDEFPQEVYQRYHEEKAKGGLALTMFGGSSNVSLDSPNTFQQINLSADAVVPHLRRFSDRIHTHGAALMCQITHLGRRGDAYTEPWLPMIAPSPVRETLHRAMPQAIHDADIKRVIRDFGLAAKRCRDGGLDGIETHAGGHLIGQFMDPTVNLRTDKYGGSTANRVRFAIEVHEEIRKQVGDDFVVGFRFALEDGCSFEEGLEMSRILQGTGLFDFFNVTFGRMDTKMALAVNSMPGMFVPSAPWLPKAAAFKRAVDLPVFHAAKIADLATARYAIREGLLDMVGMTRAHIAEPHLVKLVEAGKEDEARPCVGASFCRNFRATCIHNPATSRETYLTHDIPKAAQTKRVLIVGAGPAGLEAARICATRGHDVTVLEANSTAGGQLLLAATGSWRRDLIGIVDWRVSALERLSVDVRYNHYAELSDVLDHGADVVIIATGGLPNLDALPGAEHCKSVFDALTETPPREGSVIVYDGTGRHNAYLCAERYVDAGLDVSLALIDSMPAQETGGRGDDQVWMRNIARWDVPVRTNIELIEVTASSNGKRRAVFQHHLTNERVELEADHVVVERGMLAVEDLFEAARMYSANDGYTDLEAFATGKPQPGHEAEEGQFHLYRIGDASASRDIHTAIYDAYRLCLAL
UniProt Q01740, sequence (whole entry, looked up): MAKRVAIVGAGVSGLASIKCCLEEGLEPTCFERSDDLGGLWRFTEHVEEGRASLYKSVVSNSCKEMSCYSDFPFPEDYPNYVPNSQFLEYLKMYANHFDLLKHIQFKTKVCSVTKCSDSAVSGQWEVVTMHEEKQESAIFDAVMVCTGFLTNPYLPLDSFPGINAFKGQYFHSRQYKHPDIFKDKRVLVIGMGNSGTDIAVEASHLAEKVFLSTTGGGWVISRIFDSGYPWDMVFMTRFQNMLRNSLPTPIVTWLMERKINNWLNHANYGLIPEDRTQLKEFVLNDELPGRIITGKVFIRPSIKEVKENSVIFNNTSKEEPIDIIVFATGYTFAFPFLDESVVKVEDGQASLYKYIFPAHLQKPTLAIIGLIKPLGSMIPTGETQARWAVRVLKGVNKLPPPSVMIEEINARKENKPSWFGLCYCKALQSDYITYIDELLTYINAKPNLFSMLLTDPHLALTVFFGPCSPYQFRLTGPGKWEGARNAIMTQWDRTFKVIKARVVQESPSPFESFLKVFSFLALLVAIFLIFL
UniProt A6T923, sequence (whole entry, looked up): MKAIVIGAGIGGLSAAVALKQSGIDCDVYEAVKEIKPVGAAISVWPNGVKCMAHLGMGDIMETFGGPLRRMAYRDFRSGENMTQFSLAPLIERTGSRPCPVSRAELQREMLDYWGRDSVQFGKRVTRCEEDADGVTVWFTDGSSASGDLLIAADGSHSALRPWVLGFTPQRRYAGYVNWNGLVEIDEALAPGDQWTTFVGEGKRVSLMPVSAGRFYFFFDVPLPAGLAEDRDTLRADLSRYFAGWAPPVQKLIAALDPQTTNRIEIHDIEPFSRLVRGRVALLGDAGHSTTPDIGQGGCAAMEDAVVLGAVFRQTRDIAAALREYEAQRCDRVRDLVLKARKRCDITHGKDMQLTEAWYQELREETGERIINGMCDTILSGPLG
UniProt O60656, sequence (whole entry, looked up): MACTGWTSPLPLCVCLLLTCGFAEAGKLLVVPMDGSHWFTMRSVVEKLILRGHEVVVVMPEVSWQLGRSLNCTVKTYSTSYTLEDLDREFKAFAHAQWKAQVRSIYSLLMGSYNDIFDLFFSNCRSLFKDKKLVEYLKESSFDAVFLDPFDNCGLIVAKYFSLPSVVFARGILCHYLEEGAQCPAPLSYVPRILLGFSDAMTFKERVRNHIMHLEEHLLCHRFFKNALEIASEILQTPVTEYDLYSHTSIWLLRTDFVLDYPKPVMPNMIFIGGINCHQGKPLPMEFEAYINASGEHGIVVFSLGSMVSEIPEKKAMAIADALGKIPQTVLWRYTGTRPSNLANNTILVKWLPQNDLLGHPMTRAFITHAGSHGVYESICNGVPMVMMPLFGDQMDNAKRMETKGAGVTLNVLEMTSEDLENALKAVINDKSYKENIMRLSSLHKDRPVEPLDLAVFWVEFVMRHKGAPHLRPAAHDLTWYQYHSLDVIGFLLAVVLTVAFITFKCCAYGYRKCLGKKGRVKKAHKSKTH

For `B1 (enzyme)`, the Km was 47 µM (O=c1ccn([C@@H]2O[C@H](CO[P@@](=O)(O)O[P@@](=O)(O)O[C@H]3O[C@H](CO)[C@@H](O)[C@H](O)[C@H]3O)[C@@H](O)[C@H]2O)c(=O)[nH]1; pH 7.8).
The Km of `B2 (enzyme P89Y)` is reported as 35000 µM (NC(=O)c1ccc[n+](CCCO)c1; pH 8, 25 °C).
For `enzyme (Caballeronia cordobensis, UniProt P0DXY1)`, the Km was 167 µM (NC(=O)C1=CN([C@@H]2O[C@H](COP(=O)(O)OP(=O)(O)OC[C@H]3O[C@@H](n4cnc5c(N)ncnc54)[C@H](OP(=O)(O)O)[C@@H]3O)[C@@H](O)[C@H]2O)C=CC1; pH 8, apparent, not purified, cofactor varied).
`B3 (protein)` gave a Km of 120 µM (Cc1cn([C@H]2C[C@H](O)[C@@H](CO)O2)c(=O)[nH]c1=O; phosphorolysis, single substrate, added: phosphate).
`UGT1A9 (Homo sapiens, UniProt O60656)` gave a Km of 0.4 µM (O=c1cc(-c2ccccc2O)oc2ccccc12; pH 7.4, 37 °C).
For `IYD (Homo sapiens, UniProt Q6PHW0)`, the Km was 30 µM (N#Cc1cc(C[C@H](N)C(=O)O)cc(I)c1O; pH 7.4, 25 °C, added: sodium dithionite 0.5%).
The Km of `B4 (CstB)` is reported as 1800 µM (N[C@@H](CSS)C(=O)N[C@H]1[C@@H](O[C@@H](CC(=O)O)C(=O)O)O[C@H](CO)[C@@H](O)[C@@H]1O; pH 6, 25 °C, NaBr 100 mM, air-saturated, added: Fe(II), O2).
With `B5 (protein)` the Km was 319 µM (O=C/C=C/c1ccc(O)cc1; pH 7.5, 30 °C, not purified, added: NADPH 1 mM).
The Km of `FMO1 (Homo sapiens, UniProt Q01740)` is reported as 543 µM (CCN(CC)CCNC(=O)c1ccc(N)cc1; pH 7.4, 37 °C, added: NADPH 2 mM).
The Km of `hpxO (Klebsiella pneumoniae, UniProt A6T923)` is reported as 500 µM (NC(=O)C1=CN([C@@H]2O[C@H](COP(=O)(O)OP(=O)(O)OC[C@H]3O[C@@H](n4cnc5c(N)ncnc54)[C@H](O)[C@@H]3O)[C@@H](O)[C@H]2O)C=CC1; pH 8, 25 °C).
For `B6 (pylS)`, the Km was 31 µM (C[C@@H]1CC=N[C@H]1C(=O)NCCCC[C@H](N)C(=O)O; pH 7.2, 37 °C, apparent).
`B7 (protein)` has a Km of 518 µM (O=c1c(O)c(-c2ccc(O)cc2)oc2cc(O)cc(O)c12; pH 7.5, 35 °C, apparent, added: UDP-glucose).
The Km of `B8 (BshA Y95F)` is reported as 350 µM (CC(=O)N[C@H]1[C@@H](OP(=O)(O)OP(=O)(O)OC[C@H]2O[C@@H](n3ccc(=O)[nH]c3=O)[C@H](O)[C@@H]2O)O[C@H](CO)[C@@H](O)[C@@H]1O; pH 7.5, 21 °C, added: malate 0–25 mM).

A few entries again:
`B7 (protein)` has a Km of 518 µM (O=c1c(O)c(-c2ccc(O)cc2)oc2cc(O)cc(O)c12; pH 7.5, 35 °C, apparent, added: UDP-glucose).
For `B6 (pylS)`, the Km was 31 µM (C[C@@H]1CC=N[C@H]1C(=O)NCCCC[C@H](N)C(=O)O; pH 7.2, 37 °C, apparent).
